Measurements of several laboratories.
Compare with care: the assays were run in different laboratories. Numbers after ± are the reported error.

COc1c(C)c2c(c(O)c1C/C=C(\C)CCC(=O)O)C(=O)OC2  IC50 (lung cancer cell lines; cell proliferation; average over lines): 0.631 µM
COc1ccc2c(c1)[nH]c1c(C)nccc12  DNA methylation (DU-145; bisulfite pyrosequencing, measured: RASSF1A promoter CpG site 2; 10 µM, 16 h): 92.5%
COc1c(CCC[P+](c2ccccc2)(c2ccccc2)c2ccccc2)cc2c(c1OC)OCO2.[I-]  TGI (SF-295; SRB): -5.08 log M
Oc1ccc(C2(c3ccc(O)cc3)c3ccccc3-c3ccccc32)cc1  G1 phase cells (HepG2 spheroids; Hoechst flow cytometry; 10 µM, 96 h): 70.7 ± 3.4%
CC(C)N1CCC(NC2CCN(c3cccc(-c4cc5cc(F)ccc5[nH]4)c3)CC2)CC1  CC50 (SF-295): 6.91 µM
Nc1ncnc2c1ncn2[C@@H]1O[C@@H]2COP(=O)(O)O[C@H]3[C@@H](O)[C@H](n4cnc5c(=O)[nH]cnc54)O[C@@H]3COP(=O)(O)O[C@H]2[C@H]1O  pathway fold enrichment (HFF-1; RNA sequencing, measured: Reactome R-HSA-5083635; downregulated pathway; baseline: Zika virus alone): 9.37
COc1cc(CCC[P+](c2ccccc2)(c2ccccc2)c2ccccc2)c(OC)c2c1OCO2.[I-]  GI50 (SF-268; SRB): -5.67 log M
CN1CCN(C2(CNC3CCN(c4cccc(-c5cc6cc(F)ccc6[nH]5)c4)CC3)CCC2)CC1  GI50 (SF-268): 1.59 µM
C/C=C(/C)C(=O)O[C@H]1C(C)=C2[C@H]([C@@H]1OC(=O)CCCCCCC)[C@@](C)(OC(C)=O)C[C@H](OC(=O)CCC)[C@@]1(O)[C@H]2OC(=O)[C@@]1(C)O  normalized enrichment score (HEK-293T; RNA-seq GSEA, measured: Hallmark peroxisome; 500 nM, 6 h; direction not given): -1.03

For quick reference, copied from above:
COc1c(C)c2c(c(O)c1C/C=C(\C)CCC(=O)O)C(=O)OC2  IC50 (lung cancer cell lines; cell proliferation; average over lines): 0.631 µM
